Measurements gathered from unrelated publications.
± gives the spread as reported.
rep papain-like protease: Replicase polyprotein 1ab, papain-like protease (rep, Severe acute respiratory syndrome coronavirus 2, UniProt P0DTD1)
rep main protease: Replicase polyprotein 1ab, main protease (rep, Severe acute respiratory syndrome coronavirus 2, UniProt P0DTD1)
rep nsp13 helicase: Replicase polyprotein 1ab, nsp13 helicase (rep, Severe acute respiratory syndrome coronavirus 2, UniProt P0DTD1)
rep methyltransferase: Replicase polyprotein 1ab, methyltransferase (rep, Severe acute respiratory syndrome coronavirus 2, UniProt P0DTD1)
rep nsp14: Replicase polyprotein 1ab, nsp14 (rep, Severe acute respiratory syndrome coronavirus 2, UniProt P0DTD1)

| Molecule | target | assay | system | setting | IC50 |
| --- | --- | --- | --- | --- | --- |
| CCC(C(=O)Nc1ccccc1OC)n1c(SCc2ccc(F)cc2)nc2ncccc21 (centres unmarked) | rep papain-like protease | enzyme activity, inhibitor | – | – | 16.6 µM |
| CCn1c[n+](CC)c2ccc(OC)cc21.[Ag][I] | rep main protease | enzyme activity, inhibitor | – | – | > 50 µM |
| CC(=O)N[C@@H](CS)C(=O)O | rep nsp13 helicase | helicase ATPase activity, inhibitor | – | based on Bi content | > 150 µM |
| CC(=O)Oc1ccccc1C(=O)Nc1ncc([N+](=O)[O-])s1 | rep methyltransferase | enzyme activity, inhibitor | – | – | > 100 µM |
| CC(=O)Oc1cccc2c1C(=O)c1c(OC(C)=O)cc(C(=O)O)cc1C2=O | rep nsp14 | methyltransferase activity, inhibitor, RapidFire MS, measured: SAH | – | – | 40.7 to 80.4 µM |
| O=[N+]([O-])c1cc(O)c(O)c([N+](=O)[O-])c1 | rep methyltransferase | enzyme activity, inhibitor | – | – | 12.2 µM |
| Cc1cccc(C)c1OCC(=O)N[C@@H](Cc1ccccc1)[C@@H](O)C[C@H](Cc1ccccc1)NC(=O)[C@H](C(C)C)N1CCCNC1=O | rep main protease | enzyme activity, inhibitor | – | – | 0.224 µM |
| CCCCOc1ccc(-c2cc(C(F)(F)F)c(C#N)c(SCC(=O)O)n2)cc1 | rep nsp13 helicase | helicase ATPase activity, inhibitor, Kinase-Glo luminescence | – | 60 min, with: 2.5 µM ATP | 24 µM |
| CCCC(C(=O)Nc1cc(NC2CCNC2)ccc1C)n1cccc2nc(SCc3ccc(F)cc3)nc1-2 (centres unmarked) | rep papain-like protease | enzyme activity, inhibitor | – | – | 1.36 µM |
| CC1(C)S[C@@H]2[C@H](NC(=O)[C@H](N)c3ccccc3)C(=O)N2[C@H]1C(=O)OC1OC(=O)c2ccccc21 (some centres unmarked) | rep main protease | enzyme activity, inhibitor, FRET | – | – | 250 to 600 µM |
| Cc1ccc(NC(=O)C2(c3ccc4c(c3)OC(F)(F)O4)CC2)nc1-c1cccc(C(=O)O)c1 | Replicase polyprotein 1ab, helicase (rep, Severe acute respiratory syndrome coronavirus 2, UniProt P0DTD1) | enzyme activity, inhibitor | – | – | > 100 µM |
| ivermectin | rep main protease | enzyme activity, inhibitor | SARS-CoV-2 | – | 5.48 ± 0.75 µM |
| O=C1CC(c2ccco2)CC(=O)C1=CNc1cc(Cl)ccc1O (centres unmarked) | rep nsp13 helicase | helicase ATPase activity, inhibitor, Kinase-Glo luminescence | – | – | 84 µM |
| CCn1c[n+](CC)c2ccccc21.[Cl][Ag] | rep main protease | enzyme activity, inhibitor | – | – | > 50 µM |
| Cc1ccc(N2C(=O)NC(=O)/C(=C\c3ccc(-c4ccc(Cl)c(C(=O)O)c4)o3)C2=O)cc1 | rep nsp13 helicase | helicase ATPase activity, inhibitor, Kinase-Glo luminescence | – | 60 min, with: 2.5 µM ATP | 59 µM |
| CCOC(=O)c1c(NC(=O)c2cc3ccccc3o2)sc(C)c1-c1ccccc1 | rep methyltransferase | enzyme activity, inhibitor | – | – | 97.9 µM |
| Cc1nn(-c2ccc(Cl)cc2)c2c1C(c1ccc(Cl)cc1Cl)C(C#N)=C(N)O2 (centres unmarked) | rep main protease | 3CL protease activity | – | 120 min | 437 µM |
| NC(=S)N/N=C/c1ccc(C23CC4CC(CC(C4)C2)C3)cc1 | rep nsp13 helicase | helicase ATPase activity, inhibitor, Kinase-Glo luminescence | – | 60 min, with: 2.5 µM ATP | > 200 µM |
| CCC(C(=O)Nc1ccccc1C)n1cccc2nc([S+]([O-])Cc3ccc(F)cc3)nc1-2 (centres unmarked) | rep papain-like protease | enzyme activity, inhibitor | – | – | 16.3 µM |
| CC[C@H](CC[C@@H](C)[C@H]1CC[C@H]2[C@@H]3CC=C4C[C@@H](O)CC[C@]4(C)[C@H]3CC[C@]12C)C(C)C | rep main protease | enzyme activity, inhibitor | – | with: fluorogenic substrate | 88.2 ± 3.75 µM |
| Z-FA-FMK | rep main protease | Gaussia luciferase reporter | – | – | 62.4 µM |
| Cc1ccc(C)n1NC1=NC(=O)CS1 | rep nsp13 helicase | helicase ATPase activity, inhibitor, Kinase-Glo luminescence | – | – | > 150 µM |
| CC(=O)c1c(O)c(C)c(O)c(Cc2c(O)c3c(c(C(=O)/C=C/c4ccccc4)c2O)OC(C)(C)C=C3)c1O | rep methyltransferase | enzyme activity, inhibitor | – | – | 13.9 µM |
| CC1=C(C#N)c2nc(N)c(C#N)c(C)c2/C1=C/c1ccc(-c2cccc(C(=O)O)c2)o1 | rep nsp13 helicase | helicase ATPase activity, inhibitor, Kinase-Glo luminescence | – | 60 min, with: 2.5 µM ATP | 11 µM |
| CC1CC(c2ccc(O)cc2)=NN1c1ccc(C#N)c(Cl)c1 (centres unmarked) | rep methyltransferase | enzyme activity, inhibitor | – | – | > 100 µM |
| COC(=O)c1ccc2c(c1)C(C)(C)C(/C=C/c1ccc(OC)c(OC)c1OC)=[N+]2C | rep nsp13 helicase | helicase ATPase activity, inhibitor, Kinase-Glo luminescence | – | – | > 150 µM |
| COc1ccccc1CNC(=O)c1c(C)c(S(=O)(=O)N2CCC(C)CC2)c(C)n1C | rep nsp14 | inhibitor | – | – | > 6.25 µM |
| O=C1NN(c2ccccc2)C(=O)/C1=C/c1ccc(Sc2cccc3ccccc23)o1 | rep nsp13 helicase | helicase ATPase activity, inhibitor, Kinase-Glo luminescence | – | 60 min, with: 2.5 µM ATP | 3 µM |
| Cc1ccc(NC2CNC2)cc1NC(=O)C(C)n1cccc2nc(SCc3ccc(F)cc3)nc1-2 (centres unmarked) | rep papain-like protease | enzyme activity, inhibitor | – | – | 0.714 µM |

Excerpt of the above:
| Molecule | target | assay | system | setting | IC50 |
| --- | --- | --- | --- | --- | --- |
| CC(=O)c1c(O)c(C)c(O)c(Cc2c(O)c3c(c(C(=O)/C=C/c4ccccc4)c2O)OC(C)(C)C=C3)c1O | rep methyltransferase | enzyme activity, inhibitor | – | – | 13.9 µM |
| CC1=C(C#N)c2nc(N)c(C#N)c(C)c2/C1=C/c1ccc(-c2cccc(C(=O)O)c2)o1 | rep nsp13 helicase | helicase ATPase activity, inhibitor, Kinase-Glo luminescence | – | 60 min, with: 2.5 µM ATP | 11 µM |
| CC1CC(c2ccc(O)cc2)=NN1c1ccc(C#N)c(Cl)c1 (centres unmarked) | rep methyltransferase | enzyme activity, inhibitor | – | – | > 100 µM |
